Assay results of several laboratories.
Lines come from different studies, so protocols differ. Numbers after ± are the reported error.
GLP1R: Glucagon-like peptide 1 receptor (GLP1R, Homo sapiens, UniProt P43220)
NR1H3 ligand-binding domain: Oxysterols receptor LXR-alpha, ligand-binding domain (NR1H3, Homo sapiens, UniProt Q13133)
SLC6A8 P544L: Sodium- and chloride-dependent creatine transporter 1 (SLC6A8, Homo sapiens, UniProt P48029, P544L)
PTGER4: Prostaglandin E2 receptor EP4 subtype (PTGER4, Homo sapiens, UniProt P35408)

SMILES | target | assay | system | setting | EC50 [µM]
COc1ccc(-c2cc(C(F)(F)F)nc(SCC(=O)N(C)c3ccccc3)n2)cc1 | GLP1R | cAMP accumulation, positive allosteric modulator | HEK-293T overexpressing GLP1R | together with: EC20 GLP-1 | 23 ± 20
CN(C(=O)c1cccs1)c1ccc(C(O)(C(F)(F)F)C(F)(F)F)cc1 | NR1H3 ligand-binding domain | agonist | – | concentration not given | 0.24 ± 0.04
N#C/C(=C\c1cccc(-c2cn[nH]c2)c1)C(N)=O | RPS6KA5 (Homo sapiens, UniProt O75582) | phosphorylation in cells, inhibitor, western blot | – | – | < 5
COc1ccc(CNc2nc(-c3ccc(OC)cc3)cc(C(F)(F)F)n2)cc1 | GLP1R | cAMP accumulation, positive allosteric modulator | HEK-293T overexpressing GLP1R | together with: EC20 GLP-1 | 19 ± 22
CN(C(=O)c1ccc(F)cc1Cl)c1ccc(C(O)(C(F)(F)F)C(F)(F)F)cc1 | NR1H3 ligand-binding domain | agonist | – | concentration not given | 1.68 ± 0.03
Cc1cc(C)c2sc(NC(=O)C3CCN(S(=O)(=O)c4ccc(F)cc4)CC3)nc2c1 | Napepld (Mus musculus, UniProt Q8BH82) | flame-NAPE competition | – | together with: LEI-401 30 µM pretreatment | 1.7
CNCC(=O)N[C@@H](CCCNC(=N)N)C(=O)N[C@H](C(=O)N[C@@H](Cc1ccc(O)cc1)C(=O)N[C@@H](CCSC)C(=O)N[C@@H](Cc1c[nH]cn1)C(=O)N1CCC[C@H]1C(=O)N[C@@H](CC(C)C)C(=O)O)C(C)C | AGTR1 (Homo sapiens, UniProt P30556) | β-arrestin recruitment, agonist | – | – | 0.0007
CC(C)CCC(C=O)C(C)C (stereo not shown) | TRPV3 (Homo sapiens, UniProt Q8NET8) | ion current, agonist, patch clamp | – | – | 6540
NCCCc1ccccc1 | CFTR (Homo sapiens, UniProt P13569) | steady-state current, inside-out patch clamp | – | -80 mV | 10000 ± 3000
COc1ccc(F)cc1CC1(NC(=O)c2cc(N3C[C@@H](C)O[C@H](C)C3)ccn2)CC1 | SLC6A8 P544L | surface trafficking, PathHunter, item: SLC6A8 P544L | U-2 OS | 24 h | 0.5
O=C(O)/C=C/c1cccc(NC(=O)c2cc(-c3ccccc3)ccc2F)c1 | PTGER4 | calcium signal, agonist, fluorescence | – | – | > 10
O=[N+]([O-])c1cc(Br)cc([N+](=O)[O-])c1NS(=O)(=O)c1ccc(Br)cc1 | Abscisic acid receptor PYR1, with HAB1 (PYR1, Arabidopsis thaliana, UniProt O49686) | HAB1 phosphatase activity, antagonist | – | receptor 0.4 µM, together with: ABA 5 µM, HAB1 0.4 µM | 20.9
Cc1cc(N/C=C(\C(=O)NC2CCC2)C(=O)c2ccc(Cl)cc2Cl)no1 | GABA A receptor alpha-1/beta-1/gamma-2 (Homo sapiens, UniProt P14867+P18505+P18507) | GABA current potentiation, positive modulator, two-electrode voltage clamp | Xenopus laevis oocytes | 30 s preincubation, together with: GABA EC10 | 1.7 ± 0.2
CC[C@H](C)[C@H](NC(=O)[C@H](C)NC(=O)[C@@H](N)CO)C(=O)N[C@@H](CCCNC(=N)N)C(=O)NCC(=O)N[C@@H](C)C(=O)O | AimR transcriptional regulator (aimR, Bacillus phage phi3T, UniProt P0DOE3) | binding, microscale thermophoresis | – | pH 8.0, 23 °C, together with: AimR 200 nM | 0.118 to 0.162
COc1ccc(-c2cc(C(F)(F)F)nc(NCc3ccc(Cl)cc3)n2)cc1OC | GLP1R | cAMP accumulation, positive allosteric modulator | HEK-293T overexpressing GLP1R | together with: EC20 GLP-1 | 2.4 ± 0.9
Fc1ccc(CN2CCC[C@@H](c3nc(-c4ccc(F)c5cn[nH]c45)no3)C2)cn1 | CNR1 (Homo sapiens, UniProt P21554) | agonist | CHO expressing CNR1 | – | 0.11 ± 0.0076
COCCOc1ccc2cc1S(=O)(=O)NCCCNc1nc(ncc1-c1ccc(F)c(OC)c1)N2 | FGFR1 (Homo sapiens, UniProt P11362) | target engagement in cells, BRET | – | – | 9.8

SMILES | target | assay | system | setting | EC50 [µM]
C[C@H](NC(=O)[C@H](CC(N)=O)NC(=O)[C@H](Cc1c[nH]c2ccccc12)NC(=O)[C@H](CCCNC(=N)N)NC(=O)[C@@H](Cc1ccccc1)NC(=O)[C@H](Cc1c[nH]cn1)NC(=O)[C@H](CN=[N+]=[N-])NC(=O)[C@@H](N)Cc1ccc(O)cc1)C(=O)N[C@@H](Cc1ccccc1)C(=O)N[C@@H](CN=[N+]=[N-])C(=O)N[C@@H](Cc1ccc(O)cc1)C(N)=O | Melanocortin receptor 4 (Mus musculus, UniProt P56450) | agonist | – | – | 0.016 ± 0.005
COc1ccc(-c2cc(C(F)(F)F)nc(S(=O)(=O)CCCC(=O)Nc3ccccc3F)n2)cc1OC | GLP1R | cAMP accumulation, positive allosteric modulator | HEK-293T overexpressing GLP1R | together with: EC20 GLP-1 | 12 ± 1.6
O=C1Nc2c(ccc(Cl)c2Cl)C1=NO | Calm1/Kcnn2, SK2-a isoform (Rattus norvegicus, UniProt P0DP29+P70604) | – | rat | – | 0.44 ± 0.13
COc1ccc(-c2cc(C(F)(F)F)nc(S(=O)(=O)CCCC(=O)Nc3ccc(F)cc3F)n2)cc1OC | GLP1R | cAMP accumulation, positive allosteric modulator | HEK-293T overexpressing GLP1R | together with: EC20 GLP-1 | 12 ± 1
Oc1c(CN2CCN(c3ccccn3)CC2)cc(Cl)c2cccnc12 | DRD2 (Homo sapiens, UniProt P14416) | β-arrestin recruitment, agonist | – | – | 0.25
CN(C(=O)c1cccc(F)c1)c1ccc(C(O)(C(F)(F)F)C(F)(F)F)cc1 | NR1H3 ligand-binding domain | agonist | – | concentration not given | 0.8 ± 0.3
COc1ccc(-c2cc(C(F)(F)F)nc(S(=O)(=O)CCCC(=O)Nc3ccc(F)c(Cl)c3)n2)cc1OC | GLP1R | cAMP, agonist | – | – | 4.4
CC[C@H](C)[C@H](NC(=O)[C@H](CO)NC(=O)[C@H](Cc1ccc(O)cc1)NC(=O)[C@H](CC(=O)O)NC(=O)[C@H](CO)NC(=O)[C@@H](NC(=O)[C@H](Cc1ccccc1)NC(=O)[C@@H](NC(=O)CNC(=O)[C@H](CCC(=O)O)NC(=O)[C@H](C)NC(=O)[C@@H](N)Cc1ccc(O)cc1)[C@@H](C)O)[C@@H](C)CC)C(=O)N[C@@H](C)C(=O)N[C@@H](CCSC)C(=O)N[C@@H](CC(=O)O)C(=O)N[C@@H](CCCCN)C(=O)N[C@H](C(=O)N[C@@H](CCCNC(=N)N)C(=O)N[C@@H](CCC(N)=O)C(=O)N[C@@H](CCC(N)=O)C(=O)N[C@@H](CC(=O)O)C(=O)N[C@@H](Cc1ccccc1)C(=O)N[C@H](C(=O)N[C@@H](CC(N)=O)C(=O)N[C@@H](Cc1c[nH]c2ccccc12)C(=O)N[C@@H](CC(C)C)C(=O)N[C@@H](CC(C)C)C(=O)N[C@@H](C)C(=O)N[C@@H](CCC(N)=O)C(=O)N[C@@H](CCCNC(=N)N)C(=O)NCC(=O)N[C@@H](CCCCN)C(=O)N[C@@H](CCCCN)C(=O)N[C@@H](CO)C(=O)N[C@@H](CC(=O)O)C(=O)N[C@@H](Cc1c[nH]c2ccccc12)C(=O)N[C@@H](CCCCN)C(=O)N[C@@H](Cc1c[nH]cn1)C(=O)N[C@@H](CC(N)=O)C(=O)N[C@H](C(=O)N[C@H](C(=O)N[C@@H](CCC(N)=O)C(=O)O)[C@@H](C)O)[C@@H](C)CC)C(C)C)[C@@H](C)CC | GIPR (Homo sapiens, UniProt P48546) | reporter gene, agonist, luciferase | – | – | 1.15e-05
Cc1cc(NC2CCCCC2)nc(-n2nc(C)cc2C)n1 | Calm1/Kcnn2, SK2-a isoform (Rattus norvegicus, UniProt P0DP29+P70604, V481T) | potentiator, inside-out patch | rat | together with: 200 nM Ca2+ | 5.29 ± 1.01
COc1ccc(-c2cc(C(F)(F)F)nc(SCCC(=O)Nc3cc(F)ccc3F)n2)cc1 | GLP1R | cAMP accumulation, positive allosteric modulator | HEK-293T overexpressing GLP1R | together with: EC20 GLP-1 | 17 ± 23
O=C(O)/C=C/c1cccc(NC(=O)c2cc(-c3ccc(F)cc3)ccc2F)c1 | PTGER4 | calcium signal, agonist, fluorescence | – | – | > 10
Cc1ccc(Oc2nc3cc(-c4ccc5c(ccn5C)c4)c(Cl)cc3[nH]2)cc1C(=O)O | PRKAB2/PRKAA1, with gamma1 subunit (Homo sapiens, UniProt O43741+Q13131) | allosteric activator | – | AMPK complex α1β2γ1, together with: SAMS peptide substrate | 1.1
CN(C(=O)c1ccccc1Cl)c1ccc(C(O)(C(F)(F)F)C(F)(F)F)cc1 | NR1H3 ligand-binding domain | agonist | – | concentration not given | 0.3 ± 0.01
COc1cc(Cl)ccc1NC(=O)CCCS(=O)(=O)c1nc(-c2ccc(OC)c(OC)c2)cc(C(F)(F)F)n1 | GLP1R | cAMP, agonist | – | – | 9.5
CCCCCCCCCCCCCC(=O)NC(C)C(=O)O (stereo not shown) | GPR132 (Homo sapiens, UniProt Q9UNW8) | β-arrestin recruitment, agonist | – | – | 3
CN(C(=O)c1cccc(Cl)c1Cl)c1ccc(C(O)(C(F)(F)F)C(F)(F)F)cc1 | NR1H3 ligand-binding domain | agonist | – | concentration not given | 1.31 ± 0.03
C[C@@H]1CN(c2ccnc(C(=O)N[C@H]3C[C@@H]3c3ccccc3)c2)CC[C@@H]1O | SLC6A8 P544L | surface localization, corrector, PathHunter | U-2 OS expressing SLC6A8 | – | 0.1

A few entries again:
SMILES | target | assay | system | setting | EC50 [µM]
CN(C(=O)c1cccc(F)c1)c1ccc(C(O)(C(F)(F)F)C(F)(F)F)cc1 | NR1H3 ligand-binding domain | agonist | – | concentration not given | 0.8 ± 0.3
NCCCc1ccccc1 | CFTR (Homo sapiens, UniProt P13569) | steady-state current, inside-out patch clamp | – | -80 mV | 10000 ± 3000
